Values quoted from earlier work, collected from citations in different studies.
Protocols differ between the studies behind these lines.
UniProt Q8IW41, sequence (whole entry, looked up): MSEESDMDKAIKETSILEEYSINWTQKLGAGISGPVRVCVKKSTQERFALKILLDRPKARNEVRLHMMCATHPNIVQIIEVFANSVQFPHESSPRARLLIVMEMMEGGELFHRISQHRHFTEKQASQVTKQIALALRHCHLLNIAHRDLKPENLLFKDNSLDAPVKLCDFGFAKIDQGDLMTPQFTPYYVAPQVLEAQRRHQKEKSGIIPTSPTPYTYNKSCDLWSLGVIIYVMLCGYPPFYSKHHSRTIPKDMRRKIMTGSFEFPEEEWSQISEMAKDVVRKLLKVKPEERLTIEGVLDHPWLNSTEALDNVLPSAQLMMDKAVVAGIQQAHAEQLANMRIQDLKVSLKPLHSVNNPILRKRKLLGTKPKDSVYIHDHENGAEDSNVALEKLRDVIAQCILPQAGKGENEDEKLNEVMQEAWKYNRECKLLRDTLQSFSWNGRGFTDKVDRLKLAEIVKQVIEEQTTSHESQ

`N#C[C@@]1(c2ccc3c(N)ncnn23)O[C@H](CO)[C@@H](O)[C@H]1O` gave an AUC(0-inf) of 62.9 µM·h (dog; oral, 5 mg/kg, solution, unadjusted NCATS data).
For `Oc1ccc(C(c2ccc(O)cc2)(C(F)(F)F)C(F)(F)F)cc1`, the Cmax was 0.313 µM (refers to: free (unconjugated) compound; B6C3F1/N mouse, female; oral gavage, 34 mg/kg).
For `CNC(C)C1CCC(N)C(OC2C(N)CC(N)C(OC3OCC(C)(O)C(NC)C3O)C2O)O1` (centres unmarked), the renal clearance was 0.0412 L/h/kg (human).
`CN(C)CCc1c[nH]c2ccc(C[C@H]3COC(=O)N3)cc12` gave a logD of -1.47.
`O=C(COc1ccc(N2C(=O)[C@@H]3[C@@H]4C=C[C@@H]([C@H]5C[C@@H]45)[C@@H]3C2=O)cc1)c1cc(Cl)cc(Cl)c1` has an AUC(0-last) of 1.77e+06 ng·min/g (mouse, brain; oral, 20 mg/kg).
The Tlast of `OCc1cc(C(O)CNCCCCCCOCCCCc2ccccc2)ccc1O` (centres unmarked) is reported as 16 h (human, plasma; inhaled).
`Cc1cc(=O)n(-c2ccccc2)n1C` gave a fraction unbound of 0.69 (rat, plasma).
`c1ccc2c(c1)ccc1cc3c(ccc4ccccc43)cc12` gave a logKow of 7.22 (slow stirring).
`CS(=O)(=O)CCNCc1ccc(-c2ccc3ncnc(Nc4ccc(OCc5cccc(F)c5)c(Cl)c4)c3c2)o1` gave a steady-state Cmax of 2.43 µg/mL (human, plasma; 1250 mg/day, 4 h).
For `OC(Cn1cncn1)(Cn1cncn1)c1ccc(F)cc1F`, the AUC was 115 µg·h/mL (human; oral, 400 mg single dose).
`COC(=O)N[C@@H](C)CNc1nccc(-c2cn(C(C)C)nc2-c2cc(Cl)cc(NS(C)(=O)=O)c2F)n1` — result for “decrease in plasma exposure”: roughly 50% (human; day 15, multiple doses, autoinduction; baseline: day 1).
`NC(=O)C(CCCCNC(=O)CN1CCN(CC(=O)[O-])CCN(CC(=O)[O-])CCN(CC(=O)[O-])CC1)NC(=O)OCC1c2ccccc2-c2ccccc21.[Gd+3]` (centres unmarked) has a relaxivity r1 of 4.95 mM⁻¹ s⁻¹ (water; 20 °C, 1.0 T, non-self-assembled).
`CC(C)Cc1ccc(C(C)C(=O)O)cc1` (centres unmarked) has a steady-state concentration of roughly 180 µM (rat, plasma).
For `C=CC(=O)NC1CCN(c2ncc3ncnc(Nc4ccc(Oc5ccc6c(c5)ncn6C)c(C)c4)c3n2)CC1`, “treatment-related AEs incidence” read 17% (patients, NSCLC, HER2-mutant, previously treated; 120 mg once daily, grade ≥3).
`CN[C@@H](C)C(=O)N[C@H]1CN(S(=O)(=O)c2cccc(S(=O)(=O)N3CC[C@H]4CC[C@@H](C(=O)NC(c5ccccc5)c5ccccc5)N4C(=O)[C@@H](NC(=O)[C@H](C)NC)C3)c2)CC[C@H]2CC[C@@H](C(=O)NC(c3ccccc3)c3ccccc3)N2C1=O`: “stability at room temperature” 8 h (normal saline; up to 0.3 mg/mL).
With `C=CCCC(=O)O` the EC10 was 568 µM (pericardial and yolk oedema; zebrafish embryo; nominal concentration).
Under “adverse event incidence”, `CN(C)C(=O)c1cc2cnc(Nc3ccc(N4CCNCC4)cn3)nc2n1C1CCCC1` is recorded as 33.6% (refers to: anemia; advanced solid tumour or lymphoma patients; dose not given, 3 weeks on 1 week off, any grade; baseline: patients).
The remaining activity of `Nc1cc(C(F)(F)F)c(-c2nc(N3CCOCC3)nc(N3CCOCC3)n2)cn1` is reported as 89% (MAP kinase-activated protein kinase 5 (MAPKAPK5, Homo sapiens, UniProt Q8IW41); enzyme activity; 10 µM; baseline: untreated).
Under “apparent volume Vss/F”, `CCN1CCN(Cc2ccc(Nc3ncc(F)c(-c4cc(F)c5nc(C)n(C(C)C)c5c4)n3)nc2)CC1` is recorded as roughly 1300 L (human; dose not given, steady state, geometric mean).
`C[Si]1(C)O[Si](C)(C)O[Si](C)(C)O[Si](C)(C)O[Si](C)(C)O1` gave a log KOA of 4.94 (25 °C).
`CCCOc1ccc(S(=O)(=O)N2CCN(CCO)CC2)cc1-c1nc2c(CCC)cn(CC)c2c(=O)[nH]1` — result for “systolic blood pressure change”: -8.5 mmHg (healthy male volunteers; dose not given, without alcohol).
The oral bioavailability of `Nc1nc2c(ncn2COCCO)c(=O)[nH]1` is reported as 2.18% (rat).
For `Cc1ccc(NC(=O)c2ccc(CN3CCN(C)CC3)cc2)cc1Nc1nccc(-c2cncc(-c3oncc3C)c2)n1`, “total brain concentration” read greater than 1 µM (mouse; oral gavage, dose not given, 7 days).

Excerpt of the above:
`Cc1cc(=O)n(-c2ccccc2)n1C` gave a fraction unbound of 0.69 (rat, plasma).
